Measurements from different studies.
Protocols differ between the studies behind these lines. ± marks the error that the study gave.

| SMILES | cell line | assay | conditions | IC50 |
| --- | --- | --- | --- | --- |
| CC(C)(O)[C@H](O)COc1c2occc2cc2ccc(=O)oc12 | NIH3T3 | cell growth or viability, MTT | 24 h | 65.8 µM |
| CCCN(Cc1ccccc1OC)C(=O)c1ccc(F)c(Br)c1 | HEK293 | cell viability, MTT | 72 h | 36 ± 12 µM |
| CCCOCC(=O)Nc1cc2nc(C3CCCCC3)[nH]c2cc1N(CC)CC | Vero | cytotoxicity, Alamar Blue | 3 days, 37 °C | > 100 µg/mL |
| CC1(C)O[C@H]1COc1c2ccoc2cc2oc(=O)ccc12 | NIH3T3 | cell growth or viability, MTT | 24 h | 57.2 µM |
| CCCCC(CC)COC(=O)CC(C(=O)OCC(CC)CCCC)S(=O)(=O)O.CN(C)C(=N)N=C(N)N (stereo not drawn) | SK-N-BE(2)-C | cell growth or viability, SRB |  | 36 µM |
| CC1=C(CO)C(=O)O[C@@H]([C@@H](C)[C@H]2CC[C@H]3[C@@H]4C[C@H]5O[C@]56[C@@H](O)C=CC(=O)[C@]6(CO)[C@H]4CC[C@]23C)C1 | MDA1986 HNSCC | cell viability, MTS |  | 3.1 ± 0.46 µM |
| CCOCCOC(=O)Nc1cc2nc(C3CCCCC3)[nH]c2cc1N1CCCC1 | Vero | cytotoxicity, Alamar Blue | 3 days, 37 °C | > 100 µg/mL |
| CCCN(Cc1ccccc1OC)C(=O)c1cccc(C(F)(F)F)c1 | HEK293 | cell viability, MTT | 72 h | 29 to 31 µM |
| CN(C)c1cc2[nH]c(C3CCCCC3)nc2cc1NC(=O)c1ccc(Br)cc1 | Vero | cytotoxicity, Alamar Blue | 3 days, 37 °C | > 100 µg/mL |
| CCCN(Cc1ccccc1OC)C(=O)c1cc(C)c(C)s1 | HEK293 | cell viability, MTT | 72 h | 3.9 ± 1.6 µM |
| CN(C)c1cc2[nH]c(C3CCCCC3)nc2cc1NC(=O)c1cccc(Br)c1 | Vero | cytotoxicity, Alamar Blue | 3 days, 37 °C | > 100 µg/mL |
| CC1=C(CC(=O)Oc2ccc(-c3cc(=S)ss3)cc2)c2cc(F)ccc2/C1=C\c1ccc([S+](C)[O-])cc1 (stereo not drawn) | HepG2 and LS180 | EROD activity, inhibitor | 24 h, averaged over cell lines, with: DMBA 1 µM | 8.5 µM |
